Experimental data from different studies.
Lines come from different studies, so protocols differ. Values joined by “and” are separate records of one study, mostly repeats; a detail may differ. Numbers after ± are the reported error.

For C=C[C@]1(C)C[C@@H](OC(=O)CSc2ccc(NC(=O)c3ccco3)cc2)[C@]2(C)[C@H](C)CC[C@]3(CCC(=O)[C@H]32)[C@@H](C)[C@@H]1O, the plasma concentration was 7530 ng/mL and 7450 ng/mL and 7260 ng/mL and 10200 ng/mL and 7020 ng/mL and 10700 ng/mL and 7160 ng/mL and 7420 ng/mL (Mycoplasma gallisepticum-infected chickens, plasma; intramuscular, 80 mg/kg, 0.5 h).
C[C@]12C[C@H](c3ccc(S(C)(=O)=O)cc3)C3=C4CCC(=O)C=C4CC[C@H]3[C@@H]1CC[C@@]2(O)C(F)(F)C(F)(F)F has a plasma concentration of 13.6 ng/mL (measured: compound (parent); healthy human volunteers, pooled plasma; oral, 5 mg daily, day 28, 16 h).
CCC(=O)N(C)c1ccc(Cl)c(Cl)c1 gave a plasma concentration of 29.6 ng/mL and 20.7 ng/mL (female C57BL/6 mice; subcutaneous, 2 mg/kg, 2 h).
With COc1cc(N2CCN(C(=O)C3CCCN3)CC2)ccc1Nc1ncc(Cl)c(Nc2ccccc2P(C)(C)=O)n1 (stereo not shown) the plasma concentration was 86.8 ng/mL and 129 ng/mL (mouse, plasma; oral, 10 mg/kg, 10 h).
The plasma concentration of O=C(NS(=O)(=O)c1cccs1)c1cc2ccccc2n1Cc1ccc(Br)c2ccccc12 is reported as 80.8 ng/mL (Sprague-Dawley rat, male; intravenous, dose not given, 2 h).
Cc1noc(C)c1Cn1cc(N2C(=O)CN(Cc3cccc(O[C@@H]4O[C@H](C(=O)O)[C@@H](O)[C@H](O)[C@H]4O)c3)C2=O)cn1 has a plasma concentration of 381 ng/mL (Sprague-Dawley rat, male; oral, 10 mg/kg of parent drug, 4 h).
C=CC(=O)N1CCCC(n2c(=O)c3ncccc3n(Cc3ccc(Oc4ccccc4)cc3)c2=O)C1 (stereo not shown) gave a plasma concentration of 20100 ng/mL and 23600 ng/mL (male BALB/c mice, plasma; oral, 200 mg/kg, 1 h).
The plasma concentration of O=C1CCC(N2Cc3cc(C(=O)O)c(F)cc3C2=O)C(=O)N1 (stereo not shown) is reported as 2.1 ± 2.1 ng/mL (cynomolgus monkey, male; oral, 0.3 mg/kg parent drug, 6 h).
The plasma concentration of [2H]C([2H])([2H])C1(C([2H])([2H])[2H])NC(=O)N(c2ccc(F)c(C(C)(F)F)c2)C1=O is reported as 31700 ± 4060 ng/mL (male Swiss outbred mice, plasma; oral, 100 mg/kg, 1 h).
With O=C1C2CC3CC1CC(C(=O)N1CCN(c4ccc([N+](=O)[O-])c5ncccc45)CC1)(C3)C2 the plasma concentration was 16.9 ng/mL (male ICR mice, plasma; intravenous, 1 mg/kg, 0.5 h).
